Experimental data gathered from unrelated publications.
Numbered parts are unrelated; each lists some results of a single study. Changes are numbered by the printed parent chain.

Set 1 — method: RNA Bind-n-Seq; molecule type: RNA; sample: in vitro; concentration: 365 nM; baseline: no-protein control; reading: higher = stronger binding
Target: RNA binding protein fox-1 homolog 2, RRM domain, GST-SBP tag (RBFOX2, Homo sapiens, UniProt O43251-10, residues 100-194)
Notes: natural RNA segment, single round, ends assumed
All sequences stand within: GGGAGUUCUACAGUCCGACGAUC … UGGAAUUCUCGGGUGCCAA
Residues (chain): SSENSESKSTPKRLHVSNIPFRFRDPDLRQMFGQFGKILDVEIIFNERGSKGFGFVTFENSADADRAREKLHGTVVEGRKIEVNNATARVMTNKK
Oligonucleotide	RBNS enrichment (R)
GAUUCCAGCACUGAGCCGUGGGCCGGUCAUGAGCCACGAUAAAAAAUGCCAGUUUGGCAAACUCAGCACUCCUGUUCCCUGCUCAGGUAUAUGCGAUCUCUACCGAGAAG	0.735
AUGGCUUCCUAAGGAAUCUCUGCUUGCUCUGUAUUCUUUAUGUGGAAUAAUAUCAAGAAAUUUUUCUUGUGAGGAAAUUCAUUUGGGGUGUGUACACUAAUGCUGUACUA	0.559
GUGGAAGUUGCUAGUGCAGUCUUGGUCUGAUGGCUGUGUGCAUCGCACAUUCGGCUUGGUGAAAUCCUUCUCUAAAGCCUCUUUUUGUAUUUUUAUAACUAAACAGAGGA	0.672
GCAAAUCUGUCUUGCCAAGGAACUAGGAGCAACCGGAGGCAAAGGGAGUGGGUGGCCCCAUCACUAUUGGGACCAUCGCGUCCCUGCACAGCCCACACCCGGGGGCCCAG	0.273
UGAGACAGAGAUCGUGAAAGAAGAAGUCGUGAGCCUGCGGUCCAGUCAGUCCAGCUCGGGACCGAUGCCUGCUGUGCCUUCCUGCUGAGGGACACCUGCUUAUUUUCCCC	0.616
UGGGUGGGCAAUGGCCACCAUGUCUGCACACACCAGAAAUGGACAUUUUCAUAUGCAAUGGAAAACAGCCACAAAAAAACCUACCUUAUAUGGAAGUUGUAGCCCUCUGC	0.235
UCCAUACAUCUUCUGAAAACUAGGCGGAGGUUUCCAAAUCUCAAUUCUUGACUUCUGUGCACCUGCAGGCUUAACAGCACAUAGAAGCUGCCAAGGCUUGGGGCUUCCAC	0.599
CCUUGGGGUCCGGGAUCCAGCAUCAGGGUCUCUAUACCCCAGGAUCCUCCAUGCCACAUGGUCACUGCUCUCCUCAGGGACCAGGACAAGGUGCUGCUGCUUGCCCAAAU	0.968

Set 2 — method: RNA Bind-n-Seq; molecule type: RNA; sample: in vitro; concentration: not given; baseline: input RNA pool; reading: higher = stronger binding
Target: RING finger protein unkempt homolog, zinc fingers 1-6, GST-SBP tag (UNK, Homo sapiens, UniProt Q9C0B0, residues 30-357)
Notes: RNA with constant flanks, human-mouse chimeric sites, ends assumed
All sequences stand within: GGGAGUUCUACAGUCCGACGAUC … CAACAGAGGAUUGAGCAUCA
Residues (chain): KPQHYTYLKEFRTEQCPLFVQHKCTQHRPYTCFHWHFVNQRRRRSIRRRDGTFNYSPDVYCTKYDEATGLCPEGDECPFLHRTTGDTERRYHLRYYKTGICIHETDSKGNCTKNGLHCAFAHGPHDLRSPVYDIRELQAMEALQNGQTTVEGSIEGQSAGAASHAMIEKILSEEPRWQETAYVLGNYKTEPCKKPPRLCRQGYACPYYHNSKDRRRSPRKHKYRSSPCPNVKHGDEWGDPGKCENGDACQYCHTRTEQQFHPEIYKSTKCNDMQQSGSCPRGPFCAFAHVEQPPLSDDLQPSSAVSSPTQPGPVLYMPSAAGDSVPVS
Oligonucleotide	bound/input enrichment [ratio]
UCAUUUUUCUCUUUUCUUUCUUUCCUUUAGGAAAAGCCUAAAGAUUAGGUUGUAAGAAAAACAGAAGCCAUGUUUCGAAGACCUGUAUUACAGGUACUUCGUCAGUUUGUAAGACAUGAG	0.208
CAGCUGCAGACAGAAAAGGAUGAAAAGGAGCUGUAUAAGGUACAUUUGAAGAAUACAGAAAUAGAAAAUACGAAGCUUGUGUCAGAGAUACAGACUUUAAAAAAUUUAGAUGGAAACAAA	4.48
GCGGCAGAAUCAUGGAGGACAUAAUGCAGCUCCCCAAAGCGCGCGUCAACGCCGGCAUGUUACCACAGUAUAUCGACCGGCCCGUGUGCUUCGUAGGGAAGCUGGAAAAGAUUCAUCCCA	0.0943
GGUGGGGUGGUCAUUGCCGUUUGAGCUCUGCUGAUUCAUGAGUCGCCUUCAAAACUCUCGUGUAGGGUUGACAAUGUAAGGGGUGGGGGGAUCCAGCUUAUUCUUUUAUUUUCAAGUCCA	0.826
UCGGAUGCUGUGCUGGGUCACUUUUCAUAUCCAGAUCCUUCCCAGUGGACAGAUGAAGAACUGGGAAUCCCUCCUGAUGACGAGGACUGACACUGUAAACUCUCUGGCACUCUGUACGCA	0.323
UCUGGUCACACUCGUGUGUAUGGUGUUUGCUUUGUGGAUACUUCACUGGGCAAGUUUUUCAUCGGCCAGUUUUCGGAUGACCGCCACUGUUCCAGAUUUAGGACUCUAGUGGCUCACUAU	0.147
GCGGCAGAAUCAUGGAGGACAUAAUGCACUUGCCCAGAGCGCGCGUCAACGCCAGCAUGUUACCACAAUUCAUCGACCGGCCCGUGUGCUUCGUGGGGAAGCUGGAAAAGAUUCAUCCCA	0.102
UCUGGUCAUACUCGUGCGUAUGGUGUUUGCUUUGUGGACACUUCACUGGGCAAGUUUUUCAUCGGCCAGUUUUCGGAUGACCGCCACUGUUCCAGAUUUAGGACUCUAGUGGCUCACUAU	0.128

Set 3 — target: UBE2E1 UBC core domain (UniProt P51965); method: yeast two-hybrid; sample: yeast; notes: mostly zero background; baseline: not given; reading: higher = stronger interaction
UniProt P51965, sequence (whole entry, looked up): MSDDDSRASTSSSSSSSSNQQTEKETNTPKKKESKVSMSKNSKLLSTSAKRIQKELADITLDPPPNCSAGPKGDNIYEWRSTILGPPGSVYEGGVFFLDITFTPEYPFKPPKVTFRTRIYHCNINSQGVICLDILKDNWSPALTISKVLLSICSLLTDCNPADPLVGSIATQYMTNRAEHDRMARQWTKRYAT
B1: PJA2 RING domain (UniProt O43164); chain DHTAIGQEQCCPICCSEYIKDDIATELPCHHFFHKPCVSIWLQKSGTCPVCRRHFPPAVIEA
B2: TRIM34 RING domain (UniProt Q9BYJ4); chain ILLNVQEEVTCPICLELLTEPLSLDCGHSLCRACITVSNKEAVTSMGGKSSCPVCGISYSFEHLQA
B3: TRIM2 RING domain (UniProt Q9C040); chain VRQIDKQFLICSICLERYKNPKVLPCLHTFCERCLQNYIPAHSLTLSCPVCRQTSILPEKGV
B4: RNF11 RING domain (UniProt Q9Y3C5); chain RDGSEKKIRECVICMMDFVYGDPIRFLPCMHIYHLDCIDDWLMRSFTCPSCMEPVDAALLSS
B5: RNF130 RING domain (UniProt Q86XS8); chain DKETDPDFDHCAVCIESYKQNDVVRILPCKHVFHKSCVDPWLSEHCTCPMCKLNILKALGIV
B6: UBE4B RING domain (UniProt O95155); chain KNARAEIDYSDAPDEFRDPLMDTLMTDPVRLPSGTIMDRSIILRHLLNSPTDPFNRQTLTESMLEPVPELKEQIQAWMREKQNSDH
Molecule	lacZ reporter activity
KITELNPHLMCALCGGYFIDATTIVECLHSFCKTCIVRYLETNKYCPMCDVQVHKTRPLL (PCGF2 RING domain (UniProt P35227))	0
B1 (PJA2 RING domain)	2470
B2 (TRIM34 RING domain)	0
AAQLLEEKLTCAICLGLYQDPVTLPCGHNFCGACIRDWWDRCGKACPECREPFPDGAELR (TRIM65 RING domain (UniProt Q6PJ69))	0
PLRRLQEEKLCKICMDRHIAVVFIPCGHLVTCKQCAEAVDRCPMCSAVIDFKQRVF (BIRC8 RING domain (UniProt Q96P09))	0
B3 (TRIM2 RING domain)	0
B4 (RNF11 RING domain)	0
B5 (RNF130 RING domain)	4900
B6 (UBE4B RING domain)	0

Set 4 — target: CCND2, cyclin fold, Cln2 fusion (human); method: yeast growth competition, sequencing; sample: yeast; notes: strong parent motif; baseline: not given; reading: higher = stronger binding
Parent: PKN2 docking peptide (human); VSAVRKLDFSDTM; partner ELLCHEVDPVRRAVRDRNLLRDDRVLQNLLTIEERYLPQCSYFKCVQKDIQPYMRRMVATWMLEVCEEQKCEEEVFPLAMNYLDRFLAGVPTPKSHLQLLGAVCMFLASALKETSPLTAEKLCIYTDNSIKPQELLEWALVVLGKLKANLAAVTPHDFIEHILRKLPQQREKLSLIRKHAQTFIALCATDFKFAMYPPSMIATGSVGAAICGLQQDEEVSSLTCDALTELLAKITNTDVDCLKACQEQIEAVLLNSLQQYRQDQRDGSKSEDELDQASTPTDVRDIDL
Variant	normalised enrichment score
R5C	1.5
F9A	0.0316
K6G	0.407
K6V	2.18
D11N	3.12
K6T	1.25
T12L	2.83
F9S	0.229
D8R	0.671
D8G	0.363
A3H	0.585
S2C	2.66
D8L	0.378
T12M	2.93
R5E	0.23
S2N	2.89
S2E	0.969
S2W	1.67
L7V	0.16
R5V	0.75
S10Y	2.23
L7E	0.0937
R5L	0.695
F9E	0.355
S10A	3.35

Set 5 — method: EMSA with sequencing; molecule type: double-stranded DNA, one strand shown; sample: in vitro; concentration: 10 and 20 nM; baseline: negative control set to 0; reading: higher = stronger binding
Target: Hepatocyte nuclear factor 3-alpha (Foxa1, Mus musculus, UniProt P35582, residues 1-468, full length assumed)
Notes: whole designed probe, mean of two concentrations, ends assumed
All sequences stand within: GTGAGCGGTGCCCATTGATGGGGAAC … TTTCACTGGGATCGTGGGGAC
Target sequence (chain): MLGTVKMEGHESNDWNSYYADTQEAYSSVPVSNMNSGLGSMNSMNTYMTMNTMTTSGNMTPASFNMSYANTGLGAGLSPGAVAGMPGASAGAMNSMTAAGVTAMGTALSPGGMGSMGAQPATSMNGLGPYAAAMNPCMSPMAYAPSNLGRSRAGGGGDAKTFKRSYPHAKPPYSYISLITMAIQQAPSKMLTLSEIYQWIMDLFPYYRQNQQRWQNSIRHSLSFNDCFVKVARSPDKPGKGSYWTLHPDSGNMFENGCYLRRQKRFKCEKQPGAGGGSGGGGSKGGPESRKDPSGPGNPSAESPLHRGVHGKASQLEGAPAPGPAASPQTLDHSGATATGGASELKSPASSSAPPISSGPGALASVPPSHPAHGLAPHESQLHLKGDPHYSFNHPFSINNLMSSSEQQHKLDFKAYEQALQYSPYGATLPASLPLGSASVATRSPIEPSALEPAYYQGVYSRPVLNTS
Oligonucleotide	normalised bound fraction
TTTTGGGGGGTGGGGTGGGTGAGTGGACACCAGAACCCAGACTTGAAACCTGTGCTTGATTGAGCACCCTCAGGGCAGCCGAGCCAGCACTGTGTTTACTCTTCCTCCCCCACCCACATCACAGCAAAGAAGCGCAACTTAACACATGACTGGCCTGCCCGGGGCGCGGGGCGGGCACGAAAAATGAAGCACT	0.318 ratio
GTAGTTTCTGCTTTTCTACTTCCTGATAGACCGTTGGGCTTAAAAGGCCAATGAGCTGTCTAAGTTCTTGACTGAATTCTGTCCCAGTTTCCTGTTTACTTAGTAGACTTCTGAGTCCTTTGTAGCAGGCACTTTGTCTCAGTAAAATCAAAATTTCCTGATAGGATTCAGCCATCAACAGTAGGAGTTTTGC	0.441 ratio
GTAATGGGGGACTGAGGTTCACTCTATAAGAAAGTTGTCCTCATTATTGGGACCTGATGTAAACAAAAGGAGTGTAATCTTTGGGAGTTGTAATGTAATCTCTGGGAGTTACTGTAATCTTGCCATCATCATTCAAGGAAGGTAAACCCAGGAGCAAGAAGAGGAGCAATAAATGTGGGAATTTTGTTGAGAA	0.164 ratio
TGCACCACTCAGCCCCTCCTAGTCCGCTGGAGAAAGTGGCTGAGGGGGTGGTGGGGGATAATTGCATTTCCAAAGTCCGGGCAATCAGCCAATGTAATCTGGCACCTGCGTCACTGTGTGGGCTCTCTAGGCAACAGGTAAAATACATCAAATACACACAATTTCCTGACATTCCAATGCATTTCTGCGTGAG	0.0217 ratio
ATCCACGAACCTGGCCCTGTCTGGTAACCACAGTGAACCATCGCAAGATACAGCACTATGTGCCCAGTTGGGCTGGTAATGACTCACAAATGTGTCAACACTGGCACATCCTCAGGGACACGGAAGTGTACTTGTTTTTGGAGAGGGACTAGACCTTCATCCTTGAGGTGAAGAAGATTTTCTCTCCAGGGTG	0.0395 ratio

Excerpt of the above (set 2):
Oligonucleotide	bound/input enrichment [ratio]
GGUGGGGUGGUCAUUGCCGUUUGAGCUCUGCUGAUUCAUGAGUCGCCUUCAAAACUCUCGUGUAGGGUUGACAAUGUAAGGGGUGGGGGGAUCCAGCUUAUUCUUUUAUUUUCAAGUCCA	0.826
UCGGAUGCUGUGCUGGGUCACUUUUCAUAUCCAGAUCCUUCCCAGUGGACAGAUGAAGAACUGGGAAUCCCUCCUGAUGACGAGGACUGACACUGUAAACUCUCUGGCACUCUGUACGCA	0.323
UCAUUUUUCUCUUUUCUUUCUUUCCUUUAGGAAAAGCCUAAAGAUUAGGUUGUAAGAAAAACAGAAGCCAUGUUUCGAAGACCUGUAUUACAGGUACUUCGUCAGUUUGUAAGACAUGAG	0.208
GCGGCAGAAUCAUGGAGGACAUAAUGCACUUGCCCAGAGCGCGCGUCAACGCCAGCAUGUUACCACAAUUCAUCGACCGGCCCGUGUGCUUCGUGGGGAAGCUGGAAAAGAUUCAUCCCA	0.102
CAGCUGCAGACAGAAAAGGAUGAAAAGGAGCUGUAUAAGGUACAUUUGAAGAAUACAGAAAUAGAAAAUACGAAGCUUGUGUCAGAGAUACAGACUUUAAAAAAUUUAGAUGGAAACAAA	4.48
UCUGGUCAUACUCGUGCGUAUGGUGUUUGCUUUGUGGACACUUCACUGGGCAAGUUUUUCAUCGGCCAGUUUUCGGAUGACCGCCACUGUUCCAGAUUUAGGACUCUAGUGGCUCACUAU	0.128
